{"data": "Assay results pooled from the literature", "note": "A part holds a random share of what one study measured. Substitutions count along the parent as printed."}
{"data": "Sample 1", "target": "CCND2, cyclin fold, Cln2 fusion (human)", "method": "yeast growth competition, sequencing", "matrix": "yeast", "setting": "weak parent motif", "baseline": "not given", "reading": "higher = stronger binding", "starting sequence": "MICAL3 docking peptide (human); LQLRRQLSFSEDS; partner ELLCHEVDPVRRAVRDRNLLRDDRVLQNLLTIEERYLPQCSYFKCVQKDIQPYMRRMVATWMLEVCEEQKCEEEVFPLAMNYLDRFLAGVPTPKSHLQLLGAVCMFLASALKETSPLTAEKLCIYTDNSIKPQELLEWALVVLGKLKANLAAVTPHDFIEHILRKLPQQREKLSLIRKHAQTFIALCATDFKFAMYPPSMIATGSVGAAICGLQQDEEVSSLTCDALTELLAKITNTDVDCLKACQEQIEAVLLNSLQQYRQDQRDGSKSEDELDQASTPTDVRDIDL"}
{"Change": "Q6C", "normalised enrichment score": 0.433}
{"Change": "S8Q", "normalised enrichment score": 0.276}
{"Change": "R5I", "normalised enrichment score": 0.486}
{"Change": "S8P", "normalised enrichment score": 0.0973}
{"Change": "D12E", "normalised enrichment score": 0.371}
{"Change": "R5P", "normalised enrichment score": 0.123}
{"data": "Sample 2", "target": "RNA binding protein fox-1 homolog 2, RRM domain, GST-SBP tag (RBFOX2, Homo sapiens, UniProt O43251-10, residues 100-194)", "method": "RNA Bind-n-Seq", "form": "RNA", "matrix": "in vitro", "tested at": "365 nM", "setting": "natural RNA segment, single round, ends assumed", "baseline": "no-protein control", "reading": "higher = stronger binding", "Target sequence (chain)": "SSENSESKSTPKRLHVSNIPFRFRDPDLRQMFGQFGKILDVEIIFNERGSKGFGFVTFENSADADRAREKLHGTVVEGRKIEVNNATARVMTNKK"}
{"Sequence": "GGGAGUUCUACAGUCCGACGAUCAGACAUUAAUCUGCAACAGGUCUUGUUCAUACUCAUAAAGUGUACCGUAUUAAGAAAUCAGAACAGUGCCUUAAGACAGACUGAGACGUCGUGAAAAAUGUGUUCACACUUGGAAUUCUCGGGUGCCAA", "RBNS enrichment (R)": 0.326}
{"Sequence": "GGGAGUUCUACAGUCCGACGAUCAUAAAAUUUACCAAGUAAUAGAUCAGUACUCACUAAUAUUUUUGAGACCAUAGUUGUCUGGUCAGAAAAAUUAUAUUAAAUUAGUAAAUUCUAGAAGCUCUUUAAAAGGGUGGAAUUCUCGGGUGCCAA", "RBNS enrichment (R)": 0.755}
{"Sequence": "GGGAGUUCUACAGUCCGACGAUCUUCUUGUACAUUUGACAACACAUUGAGGAAAACCCUAUAAACAUAAUCAAGAGGGGACAUUUUUCAUUAAGAGUUCAGUAAGACUUCUCCCACAUUAUUUACUAGAAAAUUGGAAUUCUCGGGUGCCAA", "RBNS enrichment (R)": 0.699}
{"Sequence": "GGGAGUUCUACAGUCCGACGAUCGGAAUCCUUAGGCUGCCAGGAAGCCAGAGGGGUUUAGAGGUGCUCAGCUUUGAGCCCCAGUAUGCACUAUGCUUAAGCUCUGACGACUCUUGCGUGCAGCGAGGAGGUCCUGGAAUUCUCGGGUGCCAA", "RBNS enrichment (R)": 1.35}
{"Sequence": "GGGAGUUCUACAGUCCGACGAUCGGUCUUCUGUGCAACUUAGAUAUAAUAUUGUAAAAUGCUUUUCAAGUGUGGGUUUUGCCCUGAUUGUUGCAAAUACAAUUUCCACCUUCUGGAAAGGUAGGUUUGCUGUGUGGAAUUCUCGGGUGCCAA", "RBNS enrichment (R)": 0.714}
{"Sequence": "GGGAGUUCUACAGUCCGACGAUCUUUCUUCCUUUUAGAAAAACUGUACAUUUGAUCUCUCAAUUCUGUUUGCAAAGCAGUGCAGAAAACUAUAAUCAAAUGUGACAUGUCUAUAAAAUAAUUUUGACAUAACAUGGAAUUCUCGGGUGCCAA", "RBNS enrichment (R)": 0.4}
{"data": "Sample 3", "target": "Transcription factor SOX-2, HMG box (SOX2, Homo sapiens, UniProt P48431, residues 37-118)", "method": "protein-binding microarray", "form": "hairpin DNA", "matrix": "in vitro", "tested at": "not given", "setting": "whole hairpin DNA, median over replicate spots", "baseline": "not given", "reading": "higher = stronger binding", "shared flanks, not repeated": "GCAGGCC … GGCCTGCACACTCTTTCCCTACACGAC", "chain of UniProt P48431 (37-118, looked up)": "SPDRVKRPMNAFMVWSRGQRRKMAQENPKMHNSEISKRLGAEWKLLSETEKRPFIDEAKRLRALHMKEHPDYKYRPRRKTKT"}
{"Sequence": "CACCGTGGGCCTCCTGGCCCACGGTG (5mC at 11 29)", "median fluorescence": "2460 a.u."}
{"Sequence": "CACACTGGGCCTCCTGGCCCAGTGTG (5mC at 12)", "median fluorescence": "2380 a.u."}
{"Sequence": "CACCCTGGGCCTCCTGGCCCAGGGTG", "median fluorescence": "2360 a.u."}
{"Sequence": "CACAATCGGCCTCCTGGCCGATTGTG (5mC at 14 26)", "median fluorescence": "2920 a.u."}
{"Sequence": "TACAATGGGCCTCCTGGCCCATTGTA", "median fluorescence": "3420 a.u."}
{"data": "Further values, each from its own experiment"}
{"Substance": "PhoQ, residues 284 288 289 292 302 303 SSCLAV", "target": "PhoP, residues 12 14 15 18 19 AWHSL (Escherichia coli, UniProt P23836)", "assay": "Sort-seq, measured: YFP reporter", "test system": "E. coli", "conditions": "PhoQ-PhoP variant library, added: 10 µM Mg2+", "scale": "baseline: high Mg2+ state, higher = stronger signaling", "endpoint": "fold induction", "result": 3.02}
{"note": "Excerpt of the above (sample 1):"}
{"Change": "R5I", "normalised enrichment score": 0.486}
